Measurements collected from several papers.
A part holds a random share of what one study measured.

Study 1 — method: protein-binding microarray; form: double-stranded DNA, one strand shown; medium: in vitro; concentration: 2540 nM top; setting: 60-bp whole probe; together with: salmon DNA 0.4 mg/ml; baseline: random background probes; direction: higher = stronger binding; shared flanks, not repeated: GCCTAGCAC … GTCTTGATTCGCTTGACGCTGCTG
Target: Interferon regulatory factor 3, full length, phosphomimetic (IRF3, Homo sapiens, UniProt Q14653, residues 1-427, S386D/S396D/S398D/S402D/T404D/S405D)
Construct (chain): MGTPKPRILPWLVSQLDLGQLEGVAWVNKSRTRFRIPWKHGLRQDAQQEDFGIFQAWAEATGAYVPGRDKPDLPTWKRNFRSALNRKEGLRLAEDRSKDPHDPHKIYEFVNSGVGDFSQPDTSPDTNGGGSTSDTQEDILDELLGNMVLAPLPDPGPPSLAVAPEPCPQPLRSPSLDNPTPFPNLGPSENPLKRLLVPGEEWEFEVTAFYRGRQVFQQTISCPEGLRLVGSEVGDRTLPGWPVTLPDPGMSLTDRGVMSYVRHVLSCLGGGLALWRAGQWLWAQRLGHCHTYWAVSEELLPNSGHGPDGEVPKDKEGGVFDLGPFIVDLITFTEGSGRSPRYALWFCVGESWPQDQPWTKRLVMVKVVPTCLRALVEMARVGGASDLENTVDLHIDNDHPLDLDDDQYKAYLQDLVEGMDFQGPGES
`TTAGATCTCAGTTTCGAGTAGTGCTAG` — result for “fitted relative affinity”: 1.88 z-score.
`TTAGGTATCGGGTATCGGGTAGTGCTA` — result for “fitted relative affinity”: 1.4 z-score.
Under “fitted relative affinity”, `TTAGATTTCAGTATCGATTTGTGCTAG` is recorded as 3.5 z-score.
`TCAATTTTTACTTTCTGACTGTGCTAG`: “fitted relative affinity” 2.31 z-score.
`TTAGGTTTCGGTCTAGGTTAGTGCTAG` — result for “fitted relative affinity”: 7.3 z-score.
For `GACGGTCTCATTCTCCTGACGTGCTAG`, “fitted relative affinity” read 2.66 z-score.
Under “fitted relative affinity”, `GACGGTTTCGGTTTCGGGAAGTGCTAG` is recorded as 10.9 z-score.
Under “fitted relative affinity”, `TCAACTTCGGCCTCTAGGACTGTGCTA` is recorded as -0.235 z-score.
For `TCAGGTTTCAGATGCGTACTGTGCTAG`, “fitted relative affinity” read 1.97 z-score.
`GACGGTATCGGGTTTCGGGATGTGCTA`: “fitted relative affinity” 3.23 z-score.
`GTCGGACTGCTTATCCTGACGTGCTAG` — result for “fitted relative affinity”: 0.291 z-score.
For `ATAGGTTTCGGTTCCGGTTAGTGCTAG`, “fitted relative affinity” read 11.1 z-score.
Under “fitted relative affinity”, `GACGGTTTCGGGTATCGGGAAGTGCTA` is recorded as 4.88 z-score.
`TTAGGTTTCGACTATCGGTTCGTGCTA`: “fitted relative affinity” 2.57 z-score.
`TTAGGTATCCTTCTCCTTTCGTGCTAG`: “fitted relative affinity” 7.44 z-score.
Under “fitted relative affinity”, `TCATTTTTTTTAATTGAACTGTGCTAG` is recorded as 1.03 z-score.

Study 2 — method: RNA Bind-n-Seq; form: RNA; medium: in vitro; concentration: 365 nM; baseline: no-protein control; direction: higher = stronger binding
Target: RNA binding protein fox-1 homolog 2, RRM domain, GST-SBP tag (RBFOX2, Homo sapiens, UniProt O43251-10, residues 100-194)
Setting: natural RNA segment, single round, ends assumed
Shared flanks, not repeated: GGGAGUUCUACAGUCCGACGAUC … UGGAAUUCUCGGGUGCCAA
Residues (chain): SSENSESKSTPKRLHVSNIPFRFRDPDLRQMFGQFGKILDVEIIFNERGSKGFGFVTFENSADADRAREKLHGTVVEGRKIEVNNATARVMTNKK
For `ACGAACUCCAGUGUGAUCAUACGAGUCUGUCAGUCUAGUCAAAAGGCCGCCAUUUUGGCAAGACAAUCUGAAUGUGCCUUCCUGGAGCUGUCGGCUGGAAUCCCUCAUGA`, “RBNS enrichment (R)” read 0.451.
`UUUCAUAGCCAACAAGAAUCAGUAGAAGUGCUGGGAGCAGCAGCUGGGGAAGCUGCCGCCCACGGGCUCUGCCCCUUCCAGCUGGAGCCGCCCGUGCCUCCAGGGGCCAA`: “RBNS enrichment (R)” 0.429.
`UUCUUGAUACCACCCAGAAAGUCUGCUACAUACCUGAGUUAGCCACUAGAUUGCCUGUCCCGACUCAUUGAAGUGCUCCCCAGGGAGCCACUUCUGAUUUGCCAUGGUUG` — result for “RBNS enrichment (R)”: 0.409.
Under “RBNS enrichment (R)”, `UGGUGUUUCAUAAGCAUGCCUGCUGACAGCUGUAUGUGGUACUGCAGUGUUUACCAUAAACAGGUACAGGCUUCAUGAGUUUUUCAUACUGAUUUACAAUUGAGUAGAUA` is recorded as 5.08.
For `GGAUAAAUCCCUUCCCUAUUGACCUUCUUACAUAGUGCAAGCAAUAAGACUUAUUGAUCUGUGUGUAUCCCAGUGUUCCUCUGGGGUUCUGUCUAAACACCAACCAUCUU`, “RBNS enrichment (R)” read 0.805.
Under “RBNS enrichment (R)”, `GUGAAAUAAAAAAAAAUUUUAAGUGUUCUCGGGGAUGCAUAGAUUCAUCAUUUUCUCCACCUUAAAAAUGCGGGCAUUUAAGUCUGUCCAUUAUCUAUAUAGUCCUGUCU` is recorded as 0.386.
`CCCUCCCAAGAAACCAGGUUGGAGAGGCCCAAGUCACUGGGGCCCACCCUUGCUAGGGUUUCCGUACAGCCACGUGGCCGGGGCCAUGGCUUUCAAGUGCUGUCUGGGGG` — result for “RBNS enrichment (R)”: 0.372.
For `GGUAUCUUCAGCUGUUUCUUCUAUUGCUGGAUUUUCUGUUCCUUUUCCCCAGUGUUCUGUUUUCUUUGAGUGUAAUGACCCACAAGUGUCCUGCCAUUAAGAGAGGUCAG`, “RBNS enrichment (R)” read 0.358.
`AUGUCGGAUGCACCCAAGUCCUUAGCCCAGCUGUGCCACCUGCAGGAGUUCGCUCUUGCGUUUCUUCCCCUCCCCAAGAAGGGAGGGGGCUACUUCAGGCCCUUCUGUGU` — result for “RBNS enrichment (R)”: 0.38.
`CAGCUGGCCGGCACAACAGGUGUUACAUCAGGGGUUUCCUGUGGCCGUUUGAACUUUGAGCAUUUAUCUAAAUUAAAUUGGCCCAGGGUUGGCUGGUGGGUCACCCAGCA` — result for “RBNS enrichment (R)”: 15.3.
`GAAAGCAGUAUGGAUUCUUUAAAUGCCUCUCACUCUUACAAGAUAGUAGGCUUUGAGAUAAUAAACUUACCCGUGUCAAUUAACAUUUAAACUGGCAUAUAGAAAAAAAG`: “RBNS enrichment (R)” 0.336.
`AAUCCAGGAUGGCAGAGAUCCCCUGUCCCUGGAAGGUGUCAUAUAUUACUAGCUAGUAUUAGGUUGAAGUUGGGGGUGGGGGCUUUCUCCGUAGGCUUGGGGAUGGUUCC`: “RBNS enrichment (R)” 0.281.

Study 3 — method: RNA Bind-n-Seq; form: RNA; medium: in vitro; concentration: not given; baseline: input RNA pool; direction: higher = stronger binding
Target: RING finger protein unkempt homolog, zinc fingers 1-6, GST-SBP tag (UNK, Homo sapiens, UniProt Q9C0B0, residues 30-357)
UniProt Q9C0B0, sequence (30-357, looked up): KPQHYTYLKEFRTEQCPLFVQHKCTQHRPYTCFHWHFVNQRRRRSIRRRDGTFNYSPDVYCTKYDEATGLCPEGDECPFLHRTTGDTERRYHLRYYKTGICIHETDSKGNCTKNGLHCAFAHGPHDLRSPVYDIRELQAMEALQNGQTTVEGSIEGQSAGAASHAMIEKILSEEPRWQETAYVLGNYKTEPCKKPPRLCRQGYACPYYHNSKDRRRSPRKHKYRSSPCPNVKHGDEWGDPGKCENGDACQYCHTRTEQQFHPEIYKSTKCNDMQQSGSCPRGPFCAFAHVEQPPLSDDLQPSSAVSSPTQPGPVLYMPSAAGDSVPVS
Setting: RNA with constant flanks, human and mouse sites, ends assumed
Shared flanks, not repeated: GGGAGUUCUACAGUCCGACGAUC … CAACAGAGGAUUGAGCAUCA
With `AUCCAGGCAGCAGACAGCACAGCUGUGAAUGGCAGCAUUACACCCACAGACAAAAAGAUAGGAUUUUUGGGCCUUGGCUUAAUGGGAAGUGGCAUCGUCUCCAACUUGCUAAAAAUGGGU` the bound/input enrichment was 0.411 ratio.
For `UUAAACAGUUGAACUGUGUAAAUGUUUCUUGAUCUCUAAGGUAUUAUGUUUGCCUUCUCUUAGUUAUUUCUGGGUUGUCACAAAGCUCAGUAUCAUGGUUUGACAGAAGCAGUUAUGUGA`, the bound/input enrichment was 2.44 ratio.
`UACAAAUAUUUGCAGAAACCCAUGUAUGAAGUACAAUGGAAGGUUGUCGAGGAGAUAAAUGGAAACAAUUAUGUUUACAUAGACCCGACGCAACUUCCUUAUGAUCACAAAUGGGAGUUU` gave a bound/input enrichment of 0.145 ratio.
The bound/input enrichment of `UCUUUCAAGAAUACAUAUCCUAAAGAUGAAGCACAUGUCUCAGAUGAAUUCUCCAAAAGUAGGUCCAGUGUAUCUAAGGUGCCCUUAUUGCUUCCAAAUGUUUCUGCUUUGGAAUCUCAA` is reported as 0.112 ratio.
The bound/input enrichment of `UCUGCUGCGUGGACAAGGACACUCUCCGAUGCCACUUCCUCAGGCCCUUUUCCAAGGAAGACUAGAUGGAGUUGGCUUUUUAUGCAAAGGUCGUUGGAUUUCAGGGUGAGCACUGAGAGC` is reported as 0.156 ratio.
With `UUUGUUGUGCAUCAUUUAAAACAUUUUGUAUGUUUCUUAUCUGUGUAUACAGUAUGUUCUUGAAUAAUGUUCAUUUGUCGGGAGAACUGUGAGAAAUAAACGAUGUGGAUAUGUUUGUUU` the bound/input enrichment was 0.238 ratio.
For `UUGGAGGAAGUAGGGCAGGGCCCUUAUCUGGAAAGAAGUUUGGAAACCCUGGGGAGAAAUUAGUUAAAAAGAAGUGGAAUCUUGAUGAGCUGCCUAAAUUUGAGAAGAAUUUUUAUCAAG`, the bound/input enrichment was 2.94 ratio.
`UGUUUGAACAGCAAAGAAGGACAUUUGCUACGUACGGCUAUGCACUGGACCCUUCGUUAGAUAAUCAUCAGGUGUCUGCUAAGUAUAUUGGCUCUGUGGAAGAAGCGGAGAAGAACCAAG` has a bound/input enrichment of 0.152 ratio.
`GGCUGACAUGGCUGGCCAUUAAGCUUUAUAAAAUCAUGUGGGCUCUGAAAUUGUUCUUUUAUGUGUCUAGCAAGUAUUUAAUAAACCCUUGUAUAGUAAUUUUGUUGUUGUUGGGUGCUG` has a bound/input enrichment of 6.76 ratio.
`GAACAAUUUAAAUUAAUCCAAGCAGCAUAUGAUGUGUUGAGUGACCCUCAGGAAAGAGCAUGGUAUGAUAAUCAUAGAGAGGCCCUACUUAAAGGUGGGUUUGAUGGCGAAUAUCAAGAU` gave a bound/input enrichment of 0.535 ratio.
`ACUAACUCCUACUGCCGACGAACCGAAAAAUAAUUAAUGCAGAGGAGAUUUAUGUCUUAGCCAUAACUCCAGUUGUACAACUCAAUCGCCCCAUUCUCUUUUACGGUUCAAAAUGUACUG` gave a bound/input enrichment of 0.208 ratio.

Study 4 — method: protein binding microarray; form: double-stranded DNA, one strand shown; medium: in vitro; concentration: not given; baseline: not given; direction: higher = stronger binding
Target: Histone acetyltransferase KAT6A, winged helix 2, GST fusion (KAT6A, Homo sapiens, UniProt Q92794, residues 85-181)
Setting: 8-mer, flanks averaged, mean of 2 arrays, mostly near background
Construct (chain): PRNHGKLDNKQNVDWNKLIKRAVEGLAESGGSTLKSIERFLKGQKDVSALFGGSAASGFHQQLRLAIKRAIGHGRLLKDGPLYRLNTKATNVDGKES
`GATGTTAA` gave an E-score of -0.0385.
The E-score of `AACAGTAG` is reported as 0.0428.
For `GGTTCCAA`, the E-score was 0.0665.
With `AGAGGGCA` the E-score was 0.0394.
The E-score of `CCTAAGCG` is reported as -0.148.
`AGCGGCAT` gave an E-score of 0.127.
`ACGCTTAT` has an E-score of -0.154.
For `GTCGAGCA`, the E-score was -0.0117.
With `GTCGTCCA` the E-score was -0.175.
With `GAAGATTA` the E-score was -0.0156.
For `GCCGTCTA`, the E-score was 0.0115.
The E-score of `ATCGGGTA` is reported as -0.0948.
`ATTGGGCC` gave an E-score of 0.0978.
`TCATCGCA` has an E-score of 0.118.
For `AGTGCGAA`, the E-score was -0.168.
`ATGAGCAC` has an E-score of 0.116.
For `AATTCGCG`, the E-score was 0.107.
`CCCGGGTC` has an E-score of 0.178.
The E-score of `GCGCTCCC` is reported as 0.0887.
For `ACAGGTCT`, the E-score was -0.182.
`GTGAAATA` gave an E-score of -0.0208.
With `AATTCTAG` the E-score was -0.0092.
With `CATCGTTA` the E-score was -0.243.
The E-score of `CTATGCAC` is reported as -0.058.
`GTATGAAC` gave an E-score of -0.0437.
